Measured values collected from several papers.
A part holds a random share of what one study measured. Changes are numbered by the printed parent chain.

Set 1
Target: BATF3, bZIP domain (human)
Technique: DHFR protein complementation
Matrix: yeast
Notes: single substitutions, most at no-binding floor
Reference: wild-type JUN-FOS pair
Direction: higher = stronger binding
Parent: JUN, bZIP domain (human); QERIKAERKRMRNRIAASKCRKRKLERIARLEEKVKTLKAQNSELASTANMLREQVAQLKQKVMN; partner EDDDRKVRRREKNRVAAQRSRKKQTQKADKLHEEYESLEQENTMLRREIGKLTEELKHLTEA
For `T37Q`, the binding fitness was 0.361 natural log.
With `S47E` the binding fitness was 0.277 natural log.
`A46L` gave a binding fitness of 0.209 natural log.
`V56G` gave a binding fitness of -0.313 natural log.
The binding fitness of `L38W` is reported as -0.167 natural log.
With `A46I` the binding fitness was 0.246 natural log.
`L31H` gave a binding fitness of 0.106 natural log.
`L52M` gave a binding fitness of 0.074 natural log.
`S43H` has a binding fitness of 0.212 natural log.
`E33Q` has a binding fitness of 0.084 natural log.
With `A46Y` the binding fitness was 0.109 natural log.
For `A40R`, the binding fitness was 0.211 natural log.
`K39Y` has a binding fitness of 0.0748 natural log.
With `L31K` the binding fitness was 0.17 natural log.
`K39T` gave a binding fitness of 0.208 natural log.
`S47A` has a binding fitness of 0.221 natural log.
`S47T` gave a binding fitness of 0.179 natural log.

Set 2
Target: CCNA1, cyclin fold, Cln2 fusion (human)
Technique: yeast growth competition, sequencing
Matrix: yeast
Notes: weak parent motif
Reference: not given
Direction: higher = stronger binding
Parent: CDKN1A docking peptide (human); SKACRRLFGPVDS
`S1A` — result for “normalised enrichment score”: 0.566.
`L7V` — result for “normalised enrichment score”: 0.2.
Under “normalised enrichment score”, `C4K` is recorded as 0.624.
Under “normalised enrichment score”, `A3T` is recorded as 0.576.
For `K2Y`, “normalised enrichment score” read 0.573.
For `D12H`, “normalised enrichment score” read 0.243.
`P10I`: “normalised enrichment score” 0.232.
For `K2F`, “normalised enrichment score” read 0.125.
`G9E`: “normalised enrichment score” 0.901.
Under “normalised enrichment score”, `L7G` is recorded as -0.23.
`K2P` — result for “normalised enrichment score”: 0.639.
Under “normalised enrichment score”, `D12K` is recorded as 0.202.
`C4Y` — result for “normalised enrichment score”: -0.163.
For `A3P`, “normalised enrichment score” read 0.468.
`V11P` — result for “normalised enrichment score”: 0.279.
`A3H`: “normalised enrichment score” 0.261.
`G9T`: “normalised enrichment score” 0.526.
`L7W` — result for “normalised enrichment score”: 0.153.
`V11L` — result for “normalised enrichment score”: 0.721.
`A3Y`: “normalised enrichment score” -0.175.
`F8H`: “normalised enrichment score” 0.236.
For `L7H`, “normalised enrichment score” read 0.141.
For `R5K F8L`, “normalised enrichment score” read 0.166.
Under “normalised enrichment score”, `K2V` is recorded as 0.63.
Under “normalised enrichment score”, `F8A` is recorded as 0.155.

Set 3
Target: Histone acetyltransferase KAT6A, both winged helices, GST fusion (KAT6A, Homo sapiens, UniProt Q92794, residues 1-181)
Technique: protein binding microarray
Molecule type: double-stranded DNA, one strand shown
Matrix: in vitro
Tested at: not given
Notes: 8-mer, flanks averaged, mean of 2 arrays, mostly near background
Reference: not given
Direction: higher = stronger binding
Residues (chain): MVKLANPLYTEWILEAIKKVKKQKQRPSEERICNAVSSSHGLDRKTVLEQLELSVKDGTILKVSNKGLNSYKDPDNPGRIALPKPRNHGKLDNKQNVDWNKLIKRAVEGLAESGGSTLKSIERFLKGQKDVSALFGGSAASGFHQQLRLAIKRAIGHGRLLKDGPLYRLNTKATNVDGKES
`CCCTGGCG` gave an E-score of 0.093.
With `GAGTTGAC` the E-score was -0.0722.
For `AGAGAAAG`, the E-score was -0.295.
The E-score of `AATATGCG` is reported as 0.0725.
`ATATTGGA` gave an E-score of -0.152.
`GCGTTAAC` gave an E-score of 0.289.
`GCTGACCA` gave an E-score of -0.128.
`AGCTTCGA` gave an E-score of -0.188.
The E-score of `CATCCAGG` is reported as -0.093.
With `TCGCTGCA` the E-score was 0.104.
The E-score of `ACTAGGCA` is reported as -0.132.
`CCATCGAA` gave an E-score of -0.0614.
`GATATACC` has an E-score of -0.0023.
For `GTCATATA`, the E-score was -0.0869.
`ATAACAAT` has an E-score of -0.108.
With `AAGACGCA` the E-score was 0.0191.
`CTGGGGCA` gave an E-score of -0.232.
`ATAGCGAG` gave an E-score of -0.0112.
`GAGGGAGC` gave an E-score of 0.0172.
`AAACAGTA` has an E-score of -0.0471.
The E-score of `AACGTTCT` is reported as 0.0468.
The E-score of `ACGGGATA` is reported as 0.163.
`TCACTCAA` gave an E-score of -0.16.
`CCCGAGAA` gave an E-score of 0.00825.
The E-score of `AGCTTTCG` is reported as -0.14.

Set 4
Target: ABI1, truncated, D143A, DHFR fusion (Arabidopsis thaliana)
Technique: DHFR PCA, deep sequencing
Matrix: yeast
Notes: methotrexate growth selection, single substitutions
Added: (+)-ABA 0.032 µM
Reference: wild-type fitted maximum
Direction: higher = stronger binding
Parent: PYL1, truncated, DHFR fusion (Arabidopsis thaliana); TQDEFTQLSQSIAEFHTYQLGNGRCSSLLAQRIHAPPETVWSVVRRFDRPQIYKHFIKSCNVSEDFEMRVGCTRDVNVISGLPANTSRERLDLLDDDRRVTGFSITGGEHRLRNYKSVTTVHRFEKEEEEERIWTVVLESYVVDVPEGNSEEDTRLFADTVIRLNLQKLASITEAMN; partner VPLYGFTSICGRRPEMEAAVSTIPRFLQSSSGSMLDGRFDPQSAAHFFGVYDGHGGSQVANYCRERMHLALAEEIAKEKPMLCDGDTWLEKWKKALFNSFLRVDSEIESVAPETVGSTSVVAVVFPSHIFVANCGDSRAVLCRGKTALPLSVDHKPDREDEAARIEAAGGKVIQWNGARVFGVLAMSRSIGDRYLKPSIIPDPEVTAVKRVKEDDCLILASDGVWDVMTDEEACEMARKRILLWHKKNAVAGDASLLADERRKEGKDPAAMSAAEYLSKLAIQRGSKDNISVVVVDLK
Under “relative binding score”, `S27G` is recorded as 51.1%.
Under “relative binding score”, `L20S` is recorded as 30.8%.
`R111L`: “relative binding score” 4.05%.
For `N149S`, “relative binding score” read 56.5%.
`Q19M` — result for “relative binding score”: 3.08%.
For `N61V`, “relative binding score” read 50.2%.
`L82Q`: “relative binding score” 10.8%.
Under “relative binding score”, `L8P` is recorded as 3.8%.
`I57H` — result for “relative binding score”: -13.2%.
Under “relative binding score”, `L20E` is recorded as 31.7%.
Under “relative binding score”, `G148V` is recorded as -5.22%.
Under “relative binding score”, `S87Y` is recorded as 52.9%.
`D65T` — result for “relative binding score”: 4.68%.
`P146N` — result for “relative binding score”: -4.13%.
Under “relative binding score”, `N165F` is recorded as -1.99%.

Set 5
Target: RING finger protein unkempt homolog, zinc fingers 1-6, GST-SBP tag (UNK, Homo sapiens, UniProt Q9C0B0, residues 30-357)
Chain of UniProt Q9C0B0 (30-357, looked up): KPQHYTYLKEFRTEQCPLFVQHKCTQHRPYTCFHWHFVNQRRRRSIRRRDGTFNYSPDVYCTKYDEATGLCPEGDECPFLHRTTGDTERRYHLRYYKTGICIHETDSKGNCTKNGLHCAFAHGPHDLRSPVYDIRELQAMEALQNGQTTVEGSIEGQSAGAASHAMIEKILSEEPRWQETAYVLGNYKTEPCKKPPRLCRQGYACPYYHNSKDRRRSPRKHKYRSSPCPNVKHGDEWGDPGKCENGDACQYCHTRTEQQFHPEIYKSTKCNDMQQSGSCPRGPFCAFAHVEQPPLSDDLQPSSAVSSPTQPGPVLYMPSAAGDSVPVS
Technique: RNA Bind-n-Seq
Molecule type: RNA
Matrix: in vitro
Tested at: not given
Notes: RNA with constant flanks, human and mouse sites, ends assumed
Reference: input RNA pool
Direction: higher = stronger binding
`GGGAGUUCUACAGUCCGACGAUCUCAAAACGAGCAAAAUUUGUUGGACCUGGUGGCUAUAACUUAAAAAAACUUCAGGCUGAAACAGGUGUAACUAUUAGUCAGGUGGAUGAAGAAACGUUUUCUGUAUUUGCACCAACACCCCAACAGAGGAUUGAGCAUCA` gave a bound/input enrichment of 0.191 ratio.
`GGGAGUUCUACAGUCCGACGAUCACACGAGUGGCCGUGUCCUCACCCAUGAGUCAGCACCAGUCCUACAUACAAUACUUGCAUGCUUAUCCUUACCCACAGAUGUAUGACCCCAGCCACCCUGCAUACCGGGCUGUCUCUCCUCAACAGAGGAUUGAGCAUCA` gave a bound/input enrichment of 0.292 ratio.
`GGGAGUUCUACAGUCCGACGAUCUAACGUUACAUAUCAUAGUGAAUGGUUUCCCCAGUGUAUAUGAAUGUUUUAAGUGUUUCCAAUAGCUUAUGAAAUUUAGGAGCUUUCUAAUACUCGUUUUAUAAAUUUAAUCAUUUGCUACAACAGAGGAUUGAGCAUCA` gave a bound/input enrichment of 3.34 ratio.
The bound/input enrichment of `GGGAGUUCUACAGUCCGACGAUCGGUGGUGCUACACGAAUCCCUGCGGUAAAAGAGAAGAUCAGCAAAUUUUUCGGUAAAGAACUUAGUACAACAUUAAAUGCUGAUGAAGCUGUCACUCGAGGCUGUGCAUUGCAGUGUGCCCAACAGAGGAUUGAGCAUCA` is reported as 1.12 ratio.
`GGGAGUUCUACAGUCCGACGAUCAUUGAAGAAUUGCAAGAGGCUUUACGGAAGAAAGAAGAAGAAAUGAAGCAAAUGGAAGAACGCUAUAAAAAAUACUUAGAGAAGGCCAAGAGUGUUAUCCGUACAUUAGACCCUAAACAGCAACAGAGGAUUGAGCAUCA` has a bound/input enrichment of 0.951 ratio.
With `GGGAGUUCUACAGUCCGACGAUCCUGAAGCCCAUGUUGCAGCGGGACUUUAUCACUGCUUUACCAGAGCAAGGCUUAGAUCACAUAGCAGAAAACAUUCUCUCCUACCUGGAUGCCAGGUCUCUGUGUGCAGCAGAGCUGGUGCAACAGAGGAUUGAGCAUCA` the bound/input enrichment was 0.171 ratio.
For `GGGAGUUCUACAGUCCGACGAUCAAGUCAGCCCUGACUGUACAGUUUGUUCAAGGAAUUUUUGUUGAAAAAUAUGAUCCUACGAUAGAAGAUUCUUAUAGAAAGCAAGUUGAAGUAGAUGCACAGCAGUGUAUGCUUGAAAUCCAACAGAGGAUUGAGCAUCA`, the bound/input enrichment was 1.98 ratio.
`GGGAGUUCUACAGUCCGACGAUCUUGAUCAAGUUUUAUAAAUGCCAUUCAUAGGAGCUGUGAUUCUGGCAAAUUAAAGUAAUUCAUAGUUUUCUGCAAUUUGAAAUAAAAGCAUUUCCAACUUCUAGAUUAUCAUUUUAUAAACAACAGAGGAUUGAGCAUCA` has a bound/input enrichment of 1.71 ratio.
